Measurements from different studies.
Protocols differ between the studies behind these lines. ± gives the spread as reported.

SMILES | cell line | test | setting | CC50
CCC(=O)C[C@@H](O)C[C@@H](C)C[C@H](NC(=O)[C@@H]1C[C@H](C)CN1C(=O)/C=C/[C@@H](C)CC)C(=O)N[C@H](C(=O)NC(C)(C)C(=O)N[C@@H](CC(C)C)C(=O)N[C@@H](CC(C)C)C(=O)NC(C)(C)C(=O)NC(C)(C)C(=O)NCCC(=O)N[C@@H](C)CNC)[C@H](O)C(C)C | C2C12 | cell growth or viability, imaging | 72 h | > 1.5 µM
O=P(O)(OCc1cccc2ccccc12)Oc1c2c(c(OP(=O)(O)OCc3cccc4ccccc34)c3c1C1CC3c3cc4c(cc31)C1CC4c3ccccc31)C1CC2c2cc3c(cc21)C1CC3c2ccccc21 | Caco-2 | CellTiter-Glo | 2 days | 75.9 µM
Oc1c(CN2CCCC2)cc(Nc2c3cc(Cl)ccc3nc3ccc(Cl)cc23)cc1CN1CCCC1 | U2OS-ACE2-GFP | – | 20 (unit not given) | 5.46 µM
Cc1cc(C)cc(NC(=O)N2CCCC3=CC4CC(CN5CCCCC45)C32)c1 (centres unmarked) | Huh-7 | cytotoxicity | – | > 267 µM
CC=CCCCCOP(=O)(O)Oc1c2c(c(OP(=O)(O)OCCCCC=CC)c3c1C1CC3c3cc4c(cc31)C1CC4c3ccccc31)C1CC2c2cc3c(cc21)C1CC3c2ccccc21 | Caco-2 | CellTiter-Glo | 2 days | 240 µM
CC(C)OC(=O)[C@H](C)N[P@](=O)(OC[C@H]1O[C@@H](n2ccc(=O)[nH]c2=O)[C@@](F)(Br)[C@@H]1O)Oc1ccccc1 | CEM | MTS | 4 days | > 100 µM
COc1ccc2nc3ccc(Cl)cc3c(Nc3ccc(O)c(CN4CCCC4)c3)c2c1 | U2OS-ACE2-GFP | – | 20 (unit not given) | 3.2 µM
C#CCCOP(=O)(O)Oc1c2c(c(OP(=O)(O)OCCC#C)c3c1C1CC3c3cc4c(cc31)C1CC4c3ccccc31)C1CC2c2cc3c(cc21)C1CC3c2ccccc21 | Caco-2 | CellTiter-Glo | 2 days | 177 µM
CCCCCCCCCCCCC1O[C@@H]2C[C@H]3[C@@H]4CCC5=CC(=O)C=C[C@]5(C)[C@H]4[C@@H](O)C[C@]3(C)[C@]2(C(=O)CO)O1 (some centres unmarked) | human cells | – | – | > 30 µM
O=C(CCN(CCC(=O)N[C@@H](Cc1c[nH]c2ccccc12)C(=O)O)C(=O)CCN(CCC(=O)N(CCC(=O)N[C@@H](Cc1c[nH]c2ccccc12)C(=O)O)CCC(=O)N[C@@H](Cc1c[nH]c2ccccc12)C(=O)O)C(=O)[C@H]1C[C@@H](C(=O)N(CCC(=O)N(CCC(=O)N[C@@H](Cc2c[nH]c3ccccc23)C(=O)O)CCC(=O)N[C@@H](Cc2c[nH]c3ccccc23)C(=O)O)CCC(=O)N(CCC(=O)N[C@@H](Cc2c[nH]c3ccccc23)C(=O)O)CCC(=O)N[C@@H](Cc2c[nH]c3ccccc23)C(=O)O)C[C@@H](C(=O)N(CCC(=O)N(CCC(=O)N[C@@H](Cc2c[nH]c3ccccc23)C(=O)O)CCC(=O)N[C@@H](Cc2c[nH]c3ccccc23)C(=O)O)CCC(=O)N(CCC(=O)N[C@@H](Cc2c[nH]c3ccccc23)C(=O)O)CCC(=O)N[C@@H](Cc2c[nH]c3ccccc23)C(=O)O)C1)N[C@@H](Cc1c[nH]c2ccccc12)C(=O)O | MT4 | – | – | > 100 µM
Clc1cc(Cl)cc(CCCN2CCCC3=CC4CC(CN5CCCCC45)C32)c1 (centres unmarked) | Huh-7 | cytotoxicity | – | 58.1 µM
CC[C@H](C)[C@H](NC(=O)[C@H](CCCN)NC(=O)[C@H](CC(N)=O)NC(=O)[C@H](CC(C)C)NC(=O)[C@H](Cc1ccccc1)NC(=O)[C@H](CCCN)NC(=O)[C@H](CCCCNC(=N)N)NC(=O)[C@H](CC(C)C)NC(=O)[C@H](CC(C)C)NC(=O)[C@H](CCCN)NC(=O)[C@H](CCCCNC(=N)N)NC(=O)[C@H](CC(C)C)NC(=O)CNC(C)=O)C(=O)N[C@@H](CCCN)C(=O)N[C@@H](CCCCNC(=N)N)C(N)=O | T cells | CCK-8 | 24 h | 7.24 µM
CCN(CC)CCCC(C)Nc1c2cc(Cl)ccc2nc2ccc(OC)cc12 (centres unmarked) | U2OS-ACE2-GFP | – | 20 (unit not given) | 2.41 µM
CCCCCCCOP(=O)(O)Oc1c2c(c(OP(=O)(O)OCCCCCCC)c3c1C1CC3c3cc4c(cc31)C1CC4c3ccccc31)C1CC2c2cc3c(cc21)C1CC3c2ccccc21 | Caco-2 | CellTiter-Glo | 2 days | 213 µM
C1=C2CCCN(Cc3ccccc3)C2C2CC1C1CCCCN1C2 (centres unmarked) | Huh-7 | cytotoxicity | – | > 267 µM
COc1ccc2nc3ncccc3c(Nc3cc(CN4CCCC4)c(O)c(CN4CCCC4)c3)c2c1 | U2OS-ACE2-GFP | – | 20 (unit not given) | 26.3 µM
CC(C)CCC1=C(O)C(=O)c2ccccc2C1=O | Calu-3 | cell growth or viability | 72 h | 75 µM
CCc1ccc(COP(=O)(O)Oc2c3c(c(OP(=O)(O)OCc4ccc(CC)cc4)c4c2C2CC4c4cc5c(cc42)C2CC5c4ccccc42)C2CC3c3cc4c(cc32)C2CC4c3ccccc32)cc1 | Caco-2 | CellTiter-Glo | 2 days | 106 µM
CC(=NCc1ccccc1)c1c(C)cc(=O)n(O)c1O | HepDES19 | – | – | 13.8 ± 7.22 µM
Clc1ccc(CN2CCCC3=CC4CC(CN5CCCCC45)C32)cc1 (centres unmarked) | Huh-7 | cytotoxicity | – | > 267 µM
CC(C)(C)SSc1ccccc1CCOP1(=O)OC[C@H]2O[C@@H](n3ccc(=O)[nH]c3=O)[C@](C)(F)[C@@H]2O1 (some centres unmarked) | CEM | MTS | 4 days | 31.6 µM

SMILES | cell line | test | setting | CC50
COc1ccccc1/C=C/[N+](=O)[O-] | healthy human PBMC | Hoechst/PI staining | 72 h, FBS 1% | 10.7 ± 1.11 µM
O=C1Nc2ccc(F)cc2C1=Cc1c(Cl)[nH]c2c1ccc1ccccc12 | NCI-60 cell panel | – | 48 h, panel mean | 56.2 µM
C#CCCCCOP(=O)(O)Oc1c2c(c(OP(=O)(O)OCCCCC#C)c3c1C1CC3c3cc4c(cc31)C1CC4c3ccccc31)C1CC2c2cc3c(cc21)C1CC3c2ccccc21 | Caco-2 | CellTiter-Glo | 2 days | > 300 µM
CC(C)C[C@H](NC(=O)[C@H](Cc1c[nH]cn1)NC(=O)[C@H](Cc1c[nH]cn1)NC(=O)[C@H](CC(C)C)NC(=O)[C@H](Cc1ccccc1)NC(=O)[C@H](Cc1c[nH]cn1)NC(=O)[C@H](CC(C)C)NC(=O)[C@@H](N)Cc1ccccc1)C(=O)N[C@@H](Cc1ccccc1)C(N)=O | Huh-7.5.1 | cell growth or viability, MTT | 48 h | > 500 µg/mL
CC(C)C1=C[C@@]23CC[C@@H]4[C@](C)(CCC[C@@]4(C)C(=O)OCC#CCN4CCCC4)[C@H]2C[C@@H]1[C@H]1C(=O)CCC(=O)[C@H]13 | MDCK | cytotoxicity, MTT | 48 h | 69 µM
CC[C@H](C)[C@H](NC(=O)[C@H](CCCCN)NC(=O)[C@H](CC(N)=O)NC(=O)[C@H](Cc1c[nH]c2ccccc12)NC(=O)[C@H](Cc1ccccc1)NC(=O)[C@H](CCCCN)NC(=O)[C@H](CCCNC(=N)N)NC(=O)[C@H](CC(C)C)NC(=O)[C@H](Cc1c[nH]c2ccccc12)NC(=O)[C@H](CCCCN)NC(=O)[C@H](CCCNC(=N)N)NC(=O)[C@H](CC(C)C)NC(=O)CNC(C)=O)C(=O)N[C@@H](CCCCN)C(=O)N[C@@H](CCCNC(=N)N)C(N)=O | T cells | CCK-8 | 24 h | 36.7 µM
CC(C)C1=C[C@@]23CC[C@@H]4[C@](C)(CCC[C@@]4(C)C(=O)NCC#CCN4CCCNCC4)[C@H]2C[C@@H]1[C@H]1C(=O)OC(=O)[C@H]13 | MDCK | cytotoxicity, MTT | 48 h | 140 µM
CC(C)COP(=O)(O)Oc1c2c(c(OP(=O)(O)OCC(C)C)c3c1C1CC3c3cc4c(cc31)C1CC4c3ccccc31)C1CC2c2cc3c(cc21)C1CC3c2ccccc21 | Caco-2 | CellTiter-Glo | 2 days | 128 µM
Clc1ccc(CN2CCCC3=CC4CC(CN5CCCCC45)C32)cc1Cl (centres unmarked) | Huh-7 | cytotoxicity | – | 147 µM
c1nc(N2CCCCC2)ncc1CNC12CC3CC(CC(C3)C1)C2 | A549 | MTT | – | 72.1 µM
COc1ccc2nc3ccc(F)cc3c(Nc3cc(CN4CCCC4)c(O)c(CN4CCCC4)c3)c2c1 | U2OS-ACE2-GFP | – | 20 (unit not given) | 3.74 µM
OC[C@H]1[C@@H](O)[C@@H](O)CN1Cc1ccccc1 | BJ | MTS | 72 h | > 200 µM
O=C(CN1CCCC2=CC3CC(CN4CCCCC34)C21)Nc1ccc(Cl)cc1 (centres unmarked) | Huh-7 | cytotoxicity | – | > 267 µM
CCN(CC)CCCC(C)Nc1c2cc(Cl)ccc2nc2ccc(Cl)cc12 (centres unmarked) | U2OS-ACE2-GFP | – | 20 (unit not given) | ≥ 4.41 µM
C=C1C(=O)OC2C1CCC(C)=C1C(OC(=O)Nc3ccc(C(F)(F)F)cc3)CC(C)(O)C12 (centres unmarked) | MV4-11 | cell viability, alamarBlue | 24 h | 2.9 ± 0.6 µM
Oc1ccc(Nc2c3cc(Cl)ccc3nc3ccc(Cl)cc23)cc1CN1CCCC1 | U2OS-ACE2-GFP | – | 20 (unit not given) | 4.26 µM
O=C(CNc1ccc(I)cc1)N1CCCC2=CC3CC(CN4CCCCC34)C21 (centres unmarked) | Huh-7 | cytotoxicity | – | 107 µM
O=c1nc(NO)ccn1[C@@H]1O[C@H](CO)[C@@H](O)[C@H]1O | Huh-7 | MTS | 4 days | 80.3 µM
CC[C@H](C)[C@H](NC(=O)[C@H](CCCCNC(=N)N)NC(=O)[C@H](CC(N)=O)NC(=O)[C@H](CC(C)C)NC(=O)[C@H](Cc1ccccc1)NC(=O)[C@H](CCCCNC(=N)N)NC(=O)[C@H](CCCCNC(=N)N)NC(=O)[C@H](CC(C)C)NC(=O)[C@H](CC(C)C)NC(=O)[C@H](CCCCNC(=N)N)NC(=O)[C@H](CCCCNC(=N)N)NC(=O)[C@H](CC(C)C)NC(=O)CNC(C)=O)C(=O)N[C@@H](CCCCNC(=N)N)C(=O)N[C@@H](CCCCNC(=N)N)C(N)=O | T cells | CCK-8 | 24 h | 5.04 µM
O=C(c1cc(Cl)cc(Cl)c1)N1CCCC2=CC3CC(CN4CCCCC34)C21 (centres unmarked) | Huh-7 | cytotoxicity | – | 170 µM

A few entries again:
SMILES | cell line | test | setting | CC50
CC(C)C1=C[C@@]23CC[C@@H]4[C@](C)(CCC[C@@]4(C)C(=O)OCC#CCN4CCCC4)[C@H]2C[C@@H]1[C@H]1C(=O)CCC(=O)[C@H]13 | MDCK | cytotoxicity, MTT | 48 h | 69 µM
CC[C@H](C)[C@H](NC(=O)[C@H](CCCCN)NC(=O)[C@H](CC(N)=O)NC(=O)[C@H](Cc1c[nH]c2ccccc12)NC(=O)[C@H](Cc1ccccc1)NC(=O)[C@H](CCCCN)NC(=O)[C@H](CCCNC(=N)N)NC(=O)[C@H](CC(C)C)NC(=O)[C@H](Cc1c[nH]c2ccccc12)NC(=O)[C@H](CCCCN)NC(=O)[C@H](CCCNC(=N)N)NC(=O)[C@H](CC(C)C)NC(=O)CNC(C)=O)C(=O)N[C@@H](CCCCN)C(=O)N[C@@H](CCCNC(=N)N)C(N)=O | T cells | CCK-8 | 24 h | 36.7 µM
CC(C)C1=C[C@@]23CC[C@@H]4[C@](C)(CCC[C@@]4(C)C(=O)NCC#CCN4CCCNCC4)[C@H]2C[C@@H]1[C@H]1C(=O)OC(=O)[C@H]13 | MDCK | cytotoxicity, MTT | 48 h | 140 µM
